Measurements collected from several papers.
Parts stem from different laboratories: compare values within a part only.

Series 1
Target: Histone acetyltransferase KAT6A, winged helix 2, GST fusion (KAT6A, Homo sapiens, UniProt Q92794, residues 85-181)
Technique: protein binding microarray
Molecule type: double-stranded DNA, one strand shown
Matrix: in vitro
Concentration: not given
Setting: 8-mer, flanks averaged, mean of 2 arrays, mostly near background
Reference: not given
Direction: higher = stronger binding
Target sequence (chain): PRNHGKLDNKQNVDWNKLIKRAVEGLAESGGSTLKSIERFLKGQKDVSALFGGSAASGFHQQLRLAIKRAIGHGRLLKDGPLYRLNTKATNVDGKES
Strand	E-score
AGAACGCA	0.0887
CTCAGGCC	-0.0394
ATGGGAAG	-0.0301
GGGTTCGA	0.0676
AATTTATA	0.14
AGTAAAGC	0.0609
AATCGAGG	0.143
CACGTTCC	-0.15
CAAGGACA	-0.00309
ATTGAGAG	0.00365
ACCGATTG	-0.0156
AGGAGTGC	-0.0151
ATAATTAA	0.259
GGACAAAC	0.0558
CAGCTTGA	-0.0699
ACCGTAGC	-0.222
ATGTGCAA	-0.0823
TAGCAGCA	0.122
TGCGAGAA	-0.0267
GATTTACA	0.0948
TAAGTAGA	-0.0378
GTTCGTCA	-0.0439
CTGCTAAC	0.0583
ATGTCTTC	-0.0158
CCCAGTAG	-0.0873

Series 2
Target: RNA binding protein fox-1 homolog 2, RRM domain, GST-SBP tag (RBFOX2, Homo sapiens, UniProt O43251-10, residues 100-194)
Technique: RNA Bind-n-Seq
Molecule type: RNA
Matrix: in vitro
Concentration: 365 nM
Setting: natural RNA segment, single round, ends assumed
Reference: no-protein control
Direction: higher = stronger binding
Residues (chain): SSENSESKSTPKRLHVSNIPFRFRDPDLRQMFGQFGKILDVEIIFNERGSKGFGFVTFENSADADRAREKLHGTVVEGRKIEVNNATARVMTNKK
Strand	RBNS enrichment (R)
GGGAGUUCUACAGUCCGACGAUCCCCCGCCUUGGAAGGGCACACUGGGGAGGGGAAUGUCUCCACCAUUGAUAGCAUAGACUGGUCACCCUGGACGUGCUUCAAGGUACUGUUCCCACUGAGCCUGUGCUUGCUGGAAUUCUCGGGUGCCAA	0.549
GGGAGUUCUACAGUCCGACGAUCCCAUCAGAUGUCUGGGCCUCCUCCAUCAGAUGUCUGGGCCUCCUCCAUCAGAUGCUUGGGCCUCCUCCAUCAGAUGCCUGGGCCUCCUCCAUCAGAUGUCUGGGCCUCCUUGGAAUUCUCGGGUGCCAA	0.253
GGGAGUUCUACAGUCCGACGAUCAAGUAUGGGUAAAAAGGCAAGUCACUAGUUUGAGAUGAAAACUAAAAUUUUCAUGGUAAAAUGCCAGCAUGUAUGUACUUGUGUAGUGUGUACUUCUAAACAGAGAAGGCUGGAAUUCUCGGGUGCCAA	21.9
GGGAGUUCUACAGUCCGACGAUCAUUCUAAGAGCAAGUUGAGUUGAACUGAAUCUUCCUUGUCUUAGUAACAAUGUAUAAAUAGUGGCUUUUCUGUACAAAAGGUUGUAAUGCCUCCUGAUGGAUAUAAUUUUUGGAAUUCUCGGGUGCCAA	2.08
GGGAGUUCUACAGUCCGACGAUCUGGCUGUUUGAACAGCAGCGUUUCAUAGGAAGAGAAAAAAAGAUCAAUCUUGUAUUUUCUGACCACAUAAAGGCUUCUUCUCUUUGUAAUAAAGUAGAAAAGCUCUCCUCUGGAAUUCUCGGGUGCCAA	0.265
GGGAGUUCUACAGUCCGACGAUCGUUCAAGGGAAUAGAUGAGUAAGCAACGUUUCAAAUUUGGGAUGAAAAGACUGCCAAACUAUUGGCUGACCAAGGUUUUUAAAUUCAGAAGAGCAAUUCUAAAUCUAAAGUGGAAUUCUCGGGUGCCAA	0.787
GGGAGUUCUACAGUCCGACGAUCAGUUGUAAUUUAACAGAAAAACACAAAAUUUCAACCAUUCUUAAUGUUACGUCCUCCCCCCACCCCCUUCUUUCAGUGGUAUGCAACCACUGCAAUCACUGUGCAUAUGUUGGAAUUCUCGGGUGCCAA	0.443
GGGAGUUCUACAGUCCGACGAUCUAACCCCGGCUCUCCCUUUUCCACCCUACCCACCUAAAGAAGCACAGGCCCCACGAAGCAGGGGCCACACCCUUGUCCUGGGCUGCCUUCUGGCUGGCUUCUCUCUGCCAUGGAAUUCUCGGGUGCCAA	0.442
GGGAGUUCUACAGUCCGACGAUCUGGGUGGGGGUGCAGUCCAUGUUCAAUGUUCCAGCAACGUGUGUAUGUGUGUGAGUAUGUGUGUAAAGACUAUGUGGCCAAAAUACCAUCUGGCCAGACGGGCCCACCCAUGGAAUUCUCGGGUGCCAA	1.12

Series 3
Target: RING finger protein unkempt homolog, zinc fingers 1-6, GST-SBP tag (UNK, Homo sapiens, UniProt Q9C0B0, residues 30-357)
Technique: RNA Bind-n-Seq
Molecule type: RNA
Matrix: in vitro
Concentration: not given
Setting: RNA with constant flanks, human and mouse sites, ends assumed
Reference: input RNA pool
Direction: higher = stronger binding
Target sequence (chain): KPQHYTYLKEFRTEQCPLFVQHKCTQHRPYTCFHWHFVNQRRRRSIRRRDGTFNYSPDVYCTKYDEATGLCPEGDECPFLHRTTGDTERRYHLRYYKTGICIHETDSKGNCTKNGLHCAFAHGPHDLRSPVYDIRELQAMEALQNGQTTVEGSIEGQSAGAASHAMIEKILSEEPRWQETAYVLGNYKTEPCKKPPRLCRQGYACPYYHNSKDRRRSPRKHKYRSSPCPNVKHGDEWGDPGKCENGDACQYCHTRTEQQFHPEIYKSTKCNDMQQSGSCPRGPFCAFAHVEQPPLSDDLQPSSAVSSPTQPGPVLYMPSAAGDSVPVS
Strand	bound/input enrichment
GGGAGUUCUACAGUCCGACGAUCUUGUGUAGAAGAUGGACUCUGAAAGACAUUCCAAGAGUGCCGCGGCAGCAUGGGAGCCUCUUAGUGAUUGUGUCAGUAUUAUUGUGGAAGAUUGCCUUUGCUGUUGUAUGUAAAGUUUCACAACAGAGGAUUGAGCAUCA	0.642 ratio
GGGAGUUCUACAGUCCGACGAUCACAUAUCUCAUUGAGCCAGAAGAAAAUGACACUACUCAAGAGGAUUUCCAUUUUCAUUCAGUUUACAAAUCCAGACUGUUUGAAUUUUCCUUGGAUGAUCUUCCAUCUGAAUUUCAGCAACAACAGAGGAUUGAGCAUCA	0.0639 ratio
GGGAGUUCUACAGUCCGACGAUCAGCAAAGAAGAAGUUAUCCGCUUUUUGGAAAGUACCCCGGCCAGCCUGAAUCUGGAAGACAUAGAAGACCUGUUCUCUUUGGCUCAGUAUUACUGUAGUAAGACGCCAGCUUCUUUUAGGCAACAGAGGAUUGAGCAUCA	0.425 ratio
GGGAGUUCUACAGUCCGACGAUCGGCAUCGCGGGCUGUGGAACCCUACUAAUAUUGGAUCCAGAUGAAGCUGGGCUAAGGCUUUUUAGAAGCUUUGACUGGAAUGAUGGUUUGUUUGAUGUGACUUGGAGUGAGAACAACGAACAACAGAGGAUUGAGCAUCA	0.11 ratio
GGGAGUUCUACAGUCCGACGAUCAGCCACUUCAACCACUGAUGGUCAUUAAAACUCCUUUUUCACUAACUGAACCAGCAGGUCUUAGGGCUGGAGACAGCAUUUGAUCAUAGUGGACGUUGUUACAAAGACACACUGAGUCUACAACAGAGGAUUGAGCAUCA	0.221 ratio
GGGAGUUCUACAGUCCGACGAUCAAAAGACAGGCAUGGCUUUGGGAAGAAGACAAGAAUUUGAGAUCUGGCGUGAGGAAAUAUGGAGAGGGAAACUGGUCUAAAAUACUGUUGCAUUAUAAAUUCAACAACCGGACAAGUGUCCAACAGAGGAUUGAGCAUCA	0.436 ratio
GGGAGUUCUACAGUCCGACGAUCAUAGAAGACAGGGAUAAUACCUUUAUCUCUGGCCACUCAAAAAUGCAGUGCCAGGAGUGCUAAACCUAGAGGCCAAUACUGAUGACCUGGAAGGUGAUCCAUAUGAUUGUCACCACAAAGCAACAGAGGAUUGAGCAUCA	0.329 ratio
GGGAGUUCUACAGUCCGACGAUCACCCUCUCUGGGGUUCAAGAAGAGUCCGCUCUUUGCUAUCUUCUCCAGGUUGAUGAGUUUAGGUUUUUGUUGGACUGUGGCUGGGAUGAACACUUCUCUGUGGACAUUAUUGAUUCCCUGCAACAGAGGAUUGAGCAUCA	0.195 ratio
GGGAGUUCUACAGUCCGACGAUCUUUUUGGGAAUUGCUUACAUCACUAUUGGAUCCAUCUCUUUCCUUCUGGGAGUUGUACUGCUAGUAAUUAAUCAUAAAUAUAGAAACAGUAGUAACACUGCUGACAUCACCAUUUAAUUUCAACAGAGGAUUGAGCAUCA	8.92 ratio
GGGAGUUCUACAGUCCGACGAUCGCAGACUGUAACCUGCUGCCCAAGCUCCACAUUGUCAAGGUGGUGGCCAAAAAAUACCGCAACUUUGAUAUUCCUAAAGGAAUGACAGGCAUCUGGAGGUACCUGACAAACGCCUACAGCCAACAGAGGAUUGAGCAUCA	0.148 ratio
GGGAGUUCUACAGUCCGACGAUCUUUUUAAAACCUGAUGAUAUUCAAUACUUUGAUAAACUAUUGGUUGAUGUUGAUGAAUCAACACUUAGUCCAGAAGAGCAAAAAGAGAGAAAAAUAAUGAAGUUGCUUUUAAAAAUUAAGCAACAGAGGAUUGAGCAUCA	0.341 ratio

Series 4
Target: Fragile X messenger ribonucleoprotein 1, C-terminal low-complexity region (Fmr1, Mus musculus, UniProt P35922)
Technique: RNA Bind-n-Seq
Molecule type: RNA
Matrix: in vitro
Concentration: 200 nM
Setting: whole 134-nt RNA, ends assumed
With: 150 mM LiCl
Reference: input library
Direction: higher = stronger binding
Library: 7-deaza-guanosine replaces G
Strand	log2 enrichment
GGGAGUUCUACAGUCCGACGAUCCAAGUCCUGUGCUACACAUCGUAUGUACCGAAUCGGGAAAGGAAAGGGAAAGGGGAAAGUAUUAUGUUACGCCGUUCGGAUCUGCACUUCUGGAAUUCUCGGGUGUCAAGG	-0.298
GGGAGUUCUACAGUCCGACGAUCAGUCCUGUGCUACACAUCGUAUGUACCGAAUCGGGGAAAAAGGGGUUUGGGGUGGGGAAAGUAUUAUGUUACGCCGUUCGGAUCUGCACUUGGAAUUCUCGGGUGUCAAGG	-1
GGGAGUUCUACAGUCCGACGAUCGUCCUGUGCUACACAUCGUAUGUACCGAAUCGGGCCCCCGGCCCCCGGGGCCCCCGGGGAAAGUAUUAUGUUACGCCGUUCGGAUCUGCAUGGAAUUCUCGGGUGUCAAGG	-2.66
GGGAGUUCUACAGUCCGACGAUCGUCCUGUGCUACACAUCGUAUGUACCGAAUCGGAAAAAGGAAAAAGGGGAAAAAGGGGAAAGUAUUAUGUUACGCCGUUCGGAUCUGCACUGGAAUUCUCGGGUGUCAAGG	0.226
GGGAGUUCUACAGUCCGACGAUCCUGUGCUACACAUCGUAUGUACCGAAUCGGGUUUUUUUGGGGUUUUUUUGGGUUUUUUUGGAAAGUAUUAUGUUACGCCGUUCGGAUCUGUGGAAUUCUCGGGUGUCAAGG	1.2
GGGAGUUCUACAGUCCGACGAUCUUUUGCAUUUAGGGUUUUAACCAAGAAGAUCUGGAAGAAGAAAAAGGUGAAACACAGGUAAAAGAAGCAGAAGAUUCAGAUUCUGAUGAUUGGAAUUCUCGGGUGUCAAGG	-3.45
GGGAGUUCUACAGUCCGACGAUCUAACUUUAGAGGAGGAUCUGAUGGAUAUGGCAGUGGACGUGGAUUUGGGGAAGGCUAUAAUGGGUAUGGAGGAGGACCUGGAGGUGGCAAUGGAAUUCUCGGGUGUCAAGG	0.415
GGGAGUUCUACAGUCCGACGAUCACCAUGCAGGUGGGAAACUUUGGGAAGUGGGGCAAGGGGGGGAUAGGGAGGGGGGUAACACUUUGGGAACAGGUGGUCCCAGGUCGUUUCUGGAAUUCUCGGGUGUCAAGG	1.52
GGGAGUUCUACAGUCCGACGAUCUCAAGUCCUGUGCUACACAUCGUAUGUACCGAAUCGGAAAAAAAGGAGGAAAGGAAAGUAUUAUGUUACGCCGUUCGGAUCUGCACUUCCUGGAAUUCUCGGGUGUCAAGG	-0.658
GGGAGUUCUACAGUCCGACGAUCGCAGGAAGUAAAAACAAAUGGAAAUGCUUCGGAUAGUGGCAGGGGUGGUGGUUGCUAAGGAAAGGGUGGGAUGGGAGUGGGUAAAGAGUUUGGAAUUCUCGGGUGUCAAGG	1.58
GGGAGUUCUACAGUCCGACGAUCUCCUGUGCUACACAUCGUAUGUACCGAAUCGGGGAAAGGGGUUUUUGGGGUUUUUGGGGAAAGUAUUAUGUUACGCCGUUCGGAUCUGCAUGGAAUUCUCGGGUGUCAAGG	-0.85

Excerpt of the above (series 1):
Strand	E-score
TAGCAGCA	0.122
ACCGTAGC	-0.222
ATTGAGAG	0.00365
TAAGTAGA	-0.0378
GATTTACA	0.0948
CACGTTCC	-0.15
ATGTCTTC	-0.0158
CAGCTTGA	-0.0699
